Measured values gathered from unrelated publications.
Lines come from different studies, so protocols differ. “And” joins repeats or separate records; there may be more than shown. ± gives the spread as reported.
rep main protease: Replicase polyprotein 1ab, main protease (rep, Severe acute respiratory syndrome coronavirus 2, UniProt P0DTD1)
Sequence of UniProt P0A8V2 (whole entry, looked up): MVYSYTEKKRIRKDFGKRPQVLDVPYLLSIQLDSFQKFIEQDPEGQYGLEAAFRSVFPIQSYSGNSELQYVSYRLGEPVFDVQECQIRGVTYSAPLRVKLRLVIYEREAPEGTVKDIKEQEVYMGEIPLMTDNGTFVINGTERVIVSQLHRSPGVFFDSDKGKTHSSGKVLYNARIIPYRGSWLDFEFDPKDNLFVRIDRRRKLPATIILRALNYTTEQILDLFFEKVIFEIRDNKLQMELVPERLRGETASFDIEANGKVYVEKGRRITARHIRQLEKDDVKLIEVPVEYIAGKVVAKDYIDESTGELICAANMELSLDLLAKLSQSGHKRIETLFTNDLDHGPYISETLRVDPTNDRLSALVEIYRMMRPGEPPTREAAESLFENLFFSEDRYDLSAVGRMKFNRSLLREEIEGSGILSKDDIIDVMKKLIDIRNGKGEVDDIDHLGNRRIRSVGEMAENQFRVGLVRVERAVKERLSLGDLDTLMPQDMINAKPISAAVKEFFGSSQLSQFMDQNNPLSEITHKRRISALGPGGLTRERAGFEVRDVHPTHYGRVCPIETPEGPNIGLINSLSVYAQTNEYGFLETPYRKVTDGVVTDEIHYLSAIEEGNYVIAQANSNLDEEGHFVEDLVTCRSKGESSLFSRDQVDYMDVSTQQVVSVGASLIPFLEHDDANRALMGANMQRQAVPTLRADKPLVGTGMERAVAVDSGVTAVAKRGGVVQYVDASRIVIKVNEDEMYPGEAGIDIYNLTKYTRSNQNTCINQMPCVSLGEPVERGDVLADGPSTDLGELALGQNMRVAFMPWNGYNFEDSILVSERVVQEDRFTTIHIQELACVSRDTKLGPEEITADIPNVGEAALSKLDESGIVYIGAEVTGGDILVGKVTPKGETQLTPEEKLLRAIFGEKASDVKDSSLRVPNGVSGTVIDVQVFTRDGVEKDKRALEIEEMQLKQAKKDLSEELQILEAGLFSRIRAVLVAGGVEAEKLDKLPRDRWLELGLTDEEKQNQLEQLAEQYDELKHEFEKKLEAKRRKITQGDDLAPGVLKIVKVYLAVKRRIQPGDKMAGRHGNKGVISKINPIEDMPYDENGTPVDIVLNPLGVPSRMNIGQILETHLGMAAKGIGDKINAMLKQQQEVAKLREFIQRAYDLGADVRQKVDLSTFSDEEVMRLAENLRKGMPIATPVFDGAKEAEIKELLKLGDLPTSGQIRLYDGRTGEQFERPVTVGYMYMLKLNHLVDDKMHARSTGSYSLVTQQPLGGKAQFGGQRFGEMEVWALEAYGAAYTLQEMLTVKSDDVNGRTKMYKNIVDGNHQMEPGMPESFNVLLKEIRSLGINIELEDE
Sequence of UniProt P0A8T7 (whole entry, looked up): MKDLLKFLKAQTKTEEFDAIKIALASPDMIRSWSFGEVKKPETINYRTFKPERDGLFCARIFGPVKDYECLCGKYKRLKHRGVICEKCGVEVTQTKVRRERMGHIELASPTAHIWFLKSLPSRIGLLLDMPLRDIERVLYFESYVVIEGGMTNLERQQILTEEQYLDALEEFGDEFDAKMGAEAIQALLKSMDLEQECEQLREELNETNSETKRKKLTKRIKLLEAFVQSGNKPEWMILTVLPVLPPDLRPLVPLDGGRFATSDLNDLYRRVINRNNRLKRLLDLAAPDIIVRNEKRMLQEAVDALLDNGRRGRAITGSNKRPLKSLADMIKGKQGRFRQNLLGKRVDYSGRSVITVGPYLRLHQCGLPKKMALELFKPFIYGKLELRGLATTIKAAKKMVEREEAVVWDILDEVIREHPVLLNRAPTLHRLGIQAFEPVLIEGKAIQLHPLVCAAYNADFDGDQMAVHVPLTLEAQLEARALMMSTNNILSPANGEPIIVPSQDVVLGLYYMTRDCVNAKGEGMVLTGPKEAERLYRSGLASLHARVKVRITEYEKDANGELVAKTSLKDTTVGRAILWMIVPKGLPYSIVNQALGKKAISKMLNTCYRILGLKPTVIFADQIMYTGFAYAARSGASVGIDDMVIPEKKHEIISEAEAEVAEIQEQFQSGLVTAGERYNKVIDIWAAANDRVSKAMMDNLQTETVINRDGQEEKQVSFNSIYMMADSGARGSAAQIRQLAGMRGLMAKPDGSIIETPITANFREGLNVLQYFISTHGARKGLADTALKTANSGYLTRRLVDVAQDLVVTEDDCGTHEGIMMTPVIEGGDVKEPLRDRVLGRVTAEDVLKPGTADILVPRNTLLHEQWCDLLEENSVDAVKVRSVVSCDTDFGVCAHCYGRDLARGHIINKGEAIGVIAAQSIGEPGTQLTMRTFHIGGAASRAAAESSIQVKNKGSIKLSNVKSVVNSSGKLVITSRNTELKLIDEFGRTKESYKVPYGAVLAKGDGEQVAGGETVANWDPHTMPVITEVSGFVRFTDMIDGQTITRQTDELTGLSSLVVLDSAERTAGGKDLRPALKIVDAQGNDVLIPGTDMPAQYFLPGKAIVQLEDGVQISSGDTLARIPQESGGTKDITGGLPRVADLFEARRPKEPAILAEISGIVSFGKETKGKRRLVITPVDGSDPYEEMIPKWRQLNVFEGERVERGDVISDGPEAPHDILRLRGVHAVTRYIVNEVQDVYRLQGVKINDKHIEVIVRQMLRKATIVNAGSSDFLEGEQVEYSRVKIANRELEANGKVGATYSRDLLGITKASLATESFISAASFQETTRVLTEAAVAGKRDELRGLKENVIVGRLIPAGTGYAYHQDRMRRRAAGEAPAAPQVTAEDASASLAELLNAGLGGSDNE

Nc1ncnc2c1ncn2[C@H]1C[C@H](O)[C@@H](COP(=O)(O)OP(=O)(O)OP(=O)(O)O)O1 — Km (Gag-Pol polyprotein, reverse transcriptase (gag-pol, Human immunodeficiency virus type 1 group M subtype B, UniProt P04585, K653A); substrate; K66A mutant, together with: matched T:A primer template): 0.0506 ± 0.0116 µM
O=C(c1ccc(=O)[nH]c1)N1CCCC[C@H](C2CN(C(=O)c3cncc4[nH]ccc34)C2)C1 — inhibition (rep main protease; enzyme activity, inhibitor; 5 µM, mean of runs): 16.7%
CC[C@H](C)[C@H](NC(=O)[C@H](CC(C)C)NC(=O)[C@H](Cc1c[nH]c2ccccc12)NC(=O)[C@H](CCC(N)=O)NC(=O)[C@@H](NC(=O)[C@H](Cc1ccccc1)NC(=O)[C@H](C)NC(=O)[C@H](CCCCNC(=O)COCCOCCNC(=O)COCCOCCNC(=O)CC[C@H](NC(=O)CCCCCCCCCCCCCCCCCCC(=O)O)C(=O)O)NC(=O)[C@H](CCC(N)=O)NC(=O)[C@H](C)NC(=O)[C@@H](NC(=O)[C@H](CCCCN)NC(=O)[C@H](CC(=O)O)NC(=O)[C@H](CC(C)C)NC(=O)C(C)(C)NC(=O)[C@@H](NC(=O)[C@H](CO)NC(=O)[C@H](Cc1ccc(O)cc1)NC(=O)[C@H](CC(=O)O)NC(=O)[C@H](CO)NC(=O)[C@@H](NC(=O)[C@H](Cc1ccccc1)NC(=O)[C@@H](NC(=O)CNC(=O)[C@H](CCC(=O)O)NC(=O)C(C)(C)NC(=O)[C@@H](N)Cc1ccc(O)cc1)[C@@H](C)O)[C@@H](C)O)[C@@H](C)CC)[C@@H](C)CC)C(C)C)C(=O)N[C@@H](C)C(=O)NCC(=O)NCC(=O)N1CCC[C@H]1C(=O)N[C@@H](CO)C(=O)N[C@@H](CO)C(=O)NCC(=O)N[C@@H](C)C(=O)N1CCC[C@H]1C(=O)N1CCC[C@H]1C(=O)N1CCC[C@H]1C(=O)N[C@@H](CO)C(N)=O — Tmax (human, plasma; sc, 5.0 mg once weekly, week 7, median): 24 h
CCc1c(C(=O)C(N)=O)c2c(OCC(=O)O)cccc2n1Cc1ccccc1 — remaining activity (Daboia russelii venom phospholipase A2; enzyme activity, inhibitor; GA population; 0.01 µM, together with: NOB substrate; baseline: venom alone): 94% and 86%
Cn1cnc(Cn2c(=O)[nH]/c(=N\c3cc4cn(C)nc4cc3Cl)n(Cc3cc(F)c(F)cc3F)c2=O)n1 — treatment-related TEAE, Moderate severity (human, severe renal impairment; oral, 375 mg): 0%
CC(C)(C)[C@H](NC(=O)C(F)(F)F)C(=O)N1C[C@H]2[C@@H]([C@H]1C(=O)N[C@H](C#N)C[C@@H]1CCNC1=O)C2(C)C — participants with adverse events (human, fasted; oral, 1500 mg single dose, 28 days, no ritonavir): 1%
O=C1CCCC(=O)C1CC1C(=O)CCCC1=O — inhibition (rep main protease; viral replication, mKate2 reporter; SARS-CoV-2; 20 µM): -1.09%
CCN(CC)c1nc(C)cc(OP(=S)(OC)OC)n1 — remaining activity (uncharacterized protein (Anopheles coluzzii, UniProt A0A6E8VQK1); enzyme activity, inhibitor; Sf9 cell homogenate; 2.294 µM, 0.1667 h, together with: α-naphthyl acetate substrate; baseline: no inhibitor): 108%
Cc1cc(N[C@H]2C[C@H]3CC[C@@H]2N(C(=O)c2cnc4[nH]ccc4c2)C3)nc(-c2cccnc2)n1 — inhibition (rep main protease; enzyme activity, inhibitor; 5 µM, run 2): 11.4%
C[C@H](NC(=O)CCC(F)(F)F)C(=O)N[C@@H]1C(=O)N(CCO)c2ncccc2-c2ccccc21 — inhibition (rep main protease; reporter gene (mKate2), inhibitor; 20 µM): -0.325%
Cc1cnc(F)c(C(=O)NC[C@@H]2c3ccccc3CCN2C(=O)c2cccc3[nH]ccc23)c1 — inhibition (rep main protease; enzyme activity, inhibitor; 5 µM, run 2): 9%
CC[C@H](C)[C@H](NC(=O)[C@H](CC(C)C)NC(=O)[C@H](Cc1c[nH]c2ccccc12)NC(=O)[C@H](CCC(N)=O)NC(=O)[C@@H](NC(=O)[C@H](Cc1ccccc1)NC(=O)[C@H](C)NC(=O)[C@H](CCCCNC(=O)COCCOCCNC(=O)COCCOCCNC(=O)CC[C@H](NC(=O)CCCCCCCCCCCCCCCCCCC(=O)O)C(=O)O)NC(=O)[C@H](CCC(N)=O)NC(=O)[C@H](C)NC(=O)[C@@H](NC(=O)[C@H](CCCCN)NC(=O)[C@H](CC(=O)O)NC(=O)[C@H](CC(C)C)NC(=O)C(C)(C)NC(=O)[C@@H](NC(=O)[C@H](CO)NC(=O)[C@H](Cc1ccc(O)cc1)NC(=O)[C@H](CC(=O)O)NC(=O)[C@H](CO)NC(=O)[C@@H](NC(=O)[C@H](Cc1ccccc1)NC(=O)[C@@H](NC(=O)CNC(=O)[C@H](CCC(=O)O)NC(=O)C(C)(C)NC(=O)[C@@H](N)Cc1ccc(O)cc1)[C@@H](C)O)[C@@H](C)O)[C@@H](C)CC)[C@@H](C)CC)C(C)C)C(=O)N[C@@H](C)C(=O)NCC(=O)NCC(=O)N1CCC[C@H]1C(=O)N[C@@H](CO)C(=O)N[C@@H](CO)C(=O)NCC(=O)N[C@@H](C)C(=O)N1CCC[C@H]1C(=O)N1CCC[C@H]1C(=O)N1CCC[C@H]1C(=O)N[C@@H](CO)C(N)=O — treatment-emergent ADA positive subjects (healthy subjects, single ascending dose; 2.5 mg, postbaseline): 16.7%
CSCC[C@H](NC(=O)[C@H](CCCNC(=N)N)NC(=O)[C@H](Cc1ccccc1)NC(=O)[C@H](CS)NC(=O)[C@H](C)NC(=O)[C@@H](NC(=O)[C@@H](NC(=O)[C@H](C)NC(=O)[C@H](CCCNC(=N)N)NC(=O)[C@H](CCCNC(=N)N)NC(=O)[C@H](CCCNC(=N)N)NC(=O)[C@H](CCC(N)=O)NC(=O)[C@H](CCCCN)NC(=O)[C@H](CO)NC(=O)[C@H](CC(C)C)NC(=O)[C@H](CC(C)C)NC(=O)[C@H](CCCCN)NC(=O)[C@H](Cc1c[nH]cn1)NC(=O)[C@H](Cc1c[nH]c2ccccc12)NC(=O)[C@@H](NC(=O)[C@H](C)NC(=O)[C@H](CCCCN)NC(=O)[C@H](CCCCN)NC(=O)[C@H](CO)NC(=O)[C@H](CCCCN)NC(C)=O)C(C)C)C(C)C)C(C)C)C(=O)N[C@H](C(=O)N1CCC[C@H]1C(=O)N[C@@H](CC(C)C)C(=O)N[C@@H](Cc1ccc(O)cc1)C(=O)N[C@@H](CC(N)=O)C(N)=O)[C@@H](C)O — apparent ΔG2 (calmodulin 76-148 sites III and IV; calcium binding, Tyr fluorescence titration; 12 µM, pH 7.4, 22 °C, together with: 6 µM calmodulin): -18.26 ± 0.13 kcal/mol
CC(=O)O[C@@H]1[C@H](N)[C@@H](OP(=O)(O)O)[C@@]2(C(=O)O)CS[C@@](O)(C(N)=O)[C@@H]1O2 — Kd (DNA-directed RNA polymerase subunit beta' / DNA-directed RNA polymerase subunit beta (rpoC/rpoB, Escherichia coli, UniProt P0A8T7+P0A8V2); binding to elongation complex, 6-MI fluorescence titration; wild-type RNAP; 3′-deoxy RNA 3′-end Guanine): 1300 ± 300 nM
CN(C)c1ccc(C2Nc3ccc4ccccc4c3C3=C2C(=O)CC(C)(C)C3)cc1Br (stereo not drawn) — inhibition (rep main protease; viral replication, mKate2 reporter; SARS-CoV-2; 20 µM): 0.195%
Nc1ncnc2c([C@@H]3N[C@H](CO)[C@@H](O)[C@H]3O)c[nH]c12 — supernatant virus titre (Marburg marburgvirus; virus production; HeLa, Musoke; 100 µM): 0 PFU/mL
C[C@]1(C(=O)NC[C@H](NC(=O)c2cncc3[nH]ccc23)c2ccc3ccccc3c2)CCNC1=O — inhibition (rep main protease; enzyme activity; 5 µM): 13.8%
O=c1oc2cc(O)cc(O)c2c2oc3cc(O)c(O)cc3c12 — inhibition (rep main protease; reporter gene (mKate2), inhibitor; 20 µM): -0.428%

Excerpt of the above:
Nc1ncnc2c([C@@H]3N[C@H](CO)[C@@H](O)[C@H]3O)c[nH]c12 — supernatant virus titre (Marburg marburgvirus; virus production; HeLa, Musoke; 100 µM): 0 PFU/mL
CCc1c(C(=O)C(N)=O)c2c(OCC(=O)O)cccc2n1Cc1ccccc1 — remaining activity (Daboia russelii venom phospholipase A2; enzyme activity, inhibitor; GA population; 0.01 µM, together with: NOB substrate; baseline: venom alone): 94% and 86%
